Results from different studies.
Lines come from different studies, so protocols differ. “And” joins repeats or separate records; there may be more than shown. In brackets after ≈: the same amount, converted by molar mass.

N=C(N)NCCC[C@@H]1NC(=O)[C@H](CCCNC(=N)N)NC(=O)[C@@H](CCCNC(=N)N)NC(=O)[C@@H](CCCNC(=N)N)NC(=O)[C@@H](C(c2ccccc2)c2ccccc2)NC(=O)[C@@H](Cc2c[nH]c3ccccc23)NC(=O)[C@@H](C(c2ccccc2)c2ccccc2)NC1=O
MIC (Blastomyces dermatitidis; BD-3): 2 µg/mL (≈ 1.59 µM)

C=C(NC(=O)c1csc(-c2nc3c(cc2O)-c2nc(cs2)C(=O)NC(C(C)O)C(=O)NC(=C(C)OC)c2nc(cs2)C(=O)NC2c4nc(cs4)C(=O)NC(COC(=O)c4c5c6c(cccc6n4O)COC(=O)C(OC4CC(C)(O)C(N(C)C)C(C)O4)C2OC5)c2nc-3cs2)n1)C(N)=O (stereo not shown)
ED50 (Streptococcus pneumoniae; ATCC 49619, immunocompromised mice, lung infection; 24 h, tid dosing): 4.17 mg/kg

Cc1c(CN(C)C(=O)/C=C/c2cnc3c(c2)CC(N)C(=O)N3)oc2ccccc12 (stereo not shown)
MIC (Escherichia coli; microbial growth, broth dilution; BAA2469; clinical isolate): 2 µg/mL (≈ 5.12 µM)

O=S(=O)(CCC(F)(F)F)N[C@H]1CC[C@H](Nc2ncc3c(-c4ccccn4)n[nH]c3n2)CC1
EC50 (Leishmania donovani; parasite growth; amastigote): 0.33 µM

CC1C=CC=CC(C)C2C=CC3CC(C)(O)C(Cl)C(C)C3C2C(=O)C(Cl)(Cl)C(=O)C(C)C(=O)O1 (stereo not shown)
MIC (Staphylococcus aureus; MSSA clinical isolate; resistant: PEN,CLI,ERY): 0.1 µg/mL (≈ 0.188 µM)

O=C1Nc2ccccc2C1(c1c[nH]c2ccccc12)c1c[nH]c2ccccc12
IC50 (Parabacteroides distasonis; bacterial growth, inhibitor, OD600; anaerobic): > 50 µM

FC(F)(F)c1cccc(CNc2nc(NC3CCN(Cc4ccccc4)CC3)c3nc[nH]c3n2)c1
log2 fold change (Cryptococcus neoformans; RNA-seq, refers to: ARG2 (CNAG_02802); wild type; 48 µg/mL, 3 h; baseline: untreated wild type): 1.13

Fc1ccc2c(c1)c1nc3ccc(Br)cc3c-1cn2Cc1cn(-c2ccccc2I)nn1
fold change (Giardia duodenalis trophozoites; UHPLC-Q-TOF-MS metabolomics, refers to: all-trans-nonaprenyl diphosphate; IC50, 0.167 h; baseline: 0.25% DMSO): 2.46

COC1C=COC2(C)Oc3c(C)c(O)c4c(c3C2=O)C2=NC3(CCN(CC(C)C)CC3)NC2=C(NC(=O)C(C)=CC=CC(C)C(O)C(C)C(O)C(C)C(OC(=O)Nc2cccnn2)C1C)C4=O (stereo not shown)
MBC (Mycobacteroides abscessus; ATCC 19977, caseum surrogate; 5 d, non-replicating): 0.5 µM (≈ 0.463 µg/mL)

CCOC(=O)c1cc(-c2nc3ccccc3s2)c(=O)n(NS(=O)(=O)c2ccc(Cl)cc2)c1N
viral load reduction (hepatitis C virus; qRT-PCR; Huh7.5, genotype 4; concentration not given): 0%

CCC1(CC)CC(=O)N(C2c3cc(C(=O)NC4c5ccccc5CC4O)ccc3OC2(C)COC)C(=N)N1 (stereo not shown)
log PRR (Plasmodium falciparum; 3D7; 10 × EC50, 120 h): 3.62

CC(C)(C)NCC(SS(=O)(=O)O)c1ccccc1 (stereo not shown)
spleen weight (Schistosoma mansoni; Swiss Webster mouse, infected; oral, 200 mg/kg daily x4, 57 days p.i., dosed from day 7 p.i.): 0.17 g and 0.245 g and 0.24 g and 0.2 g and 0.37 g

c1ccc2c([C+](c3c[nH]c4ccccc34)c3c[nH]c4ccccc34)c[nH]c2c1
IC50 (Bacteroides fragilis; microbial growth, absorbance): 7.6 µM

N=C(N)NCCC[C@@H]1NC(=O)[C@H](CCCNC(=N)N)NC(=O)[C@@H](CCCNC(=N)N)NC(=O)[C@H](C(c2ccccc2)c2ccccc2)NC(=O)[C@H](C(c2ccccc2)c2ccccc2)NC(=O)[C@H](C(c2ccccc2)c2ccccc2)NC(=O)[C@H](CCCNC(=N)N)NC1=O
MIC (Blastomyces dermatitidis; BD-1): 0.5 µg/mL (≈ 0.386 µM)

CC1(C)[C@H](NC(=O)/C(=N\OCC(=O)N2CCC[C@@H]2C(=O)O)c2nsc(N)n2)C(=O)N1OS(=O)(=O)O
MIC (Serratia marcescens; agar dilution; ATCC 21074, susceptible): 1 µg/mL (≈ 1.87 µM)

Cc1ccc(S(=O)(=O)Nn2c3c(cc(-c4nc5ccccc5s4)c2=O)CCCCCC3)cc1
viral load reduction (hepatitis C virus; qRT-PCR; Huh7.5, genotype 4; concentration not given): 30%

c1ccc2c(Cc3c(-c4c[nH]c5ccccc45)[nH]c4ccccc34)c[nH]c2c1
IC50 (Parabacteroides distasonis; bacterial growth, inhibitor, OD600; anaerobic): > 50 µM

O=C1C(O)=C([C@H]2CC[C@H](c3ccc(Cl)cc3)CC2)C(=O)c2ccccc21
EC50 (Toxoplasma gondii; tachyzoite growth, luciferase; HFF; 72 h): 0.156 µM

CNCc1ccc2c(c1)N(C(=O)OCc1c(F)c(F)c(F)c(F)c1F)[C@H](CNC(=N)N)[C@H]2NC(=O)C(=O)Nc1ccc(Cl)c(F)c1
IC80 (HIV-1; pseudovirus infection, Env pseudovirus neutralisation; TZM-bl, clade C T/F isolate 2A2): 13.1 µM

For quick reference, copied from above:
c1ccc2c(Cc3c(-c4c[nH]c5ccccc45)[nH]c4ccccc34)c[nH]c2c1
IC50 (Parabacteroides distasonis; bacterial growth, inhibitor, OD600; anaerobic): > 50 µM

O=C1C(O)=C([C@H]2CC[C@H](c3ccc(Cl)cc3)CC2)C(=O)c2ccccc21
EC50 (Toxoplasma gondii; tachyzoite growth, luciferase; HFF; 72 h): 0.156 µM

CNCc1ccc2c(c1)N(C(=O)OCc1c(F)c(F)c(F)c(F)c1F)[C@H](CNC(=N)N)[C@H]2NC(=O)C(=O)Nc1ccc(Cl)c(F)c1
IC80 (HIV-1; pseudovirus infection, Env pseudovirus neutralisation; TZM-bl, clade C T/F isolate 2A2): 13.1 µM
